Published values gathered from unrelated publications.
Each line is one published result; not all experiments were run side by side. Values joined by “and” are separate records of one study, mostly repeats; a detail may differ.
Target: Endothelin-1 receptor (EDNRA, Homo sapiens, UniProt P25101)

Cc1ccc2c(n1)c(-c1cccc(S(C)(=O)=O)c1)c(C)n2C/C(F)=C/CN  inhibition (ligand displacement, radioligand; 10 µM): -5%
O=C(O)c1ccc(-c2nc(-c3ccccc3Cl)c3sccn23)cc1  specific binding (radioligand binding, safety screen panel; 10 µM; relative to: control): 102% and 110%
CCc1nnc(-c2c(OC)cc(-c3cnc4cc(-c5cnn(C)c5)ccn34)cc2OC)o1  remaining binding (agonist radioligand, radioligand binding; 10 µM, SafetyScreen44 ETA replicate 2; lower = stronger displacement): 98.8%
N[C@H](C(=O)N1CCCC1)C1CCN(c2nccc3c(-c4ncc(Cl)cc4Cl)cccc23)CC1  response (functional response, agonist; 10 µM): 4%
COc1ccc(F)cc1S(=O)(=O)Nc1cnc2c(c1)C(=O)NCCO2  inhibition (ligand displacement, radioligand; 10 µM): 4%
Cc1sc2c(c1C)C(c1ccc(Cl)cc1)=NC(CC(=O)OC(C)(C)C)c1nnc(C)n1-2 (stereo not drawn)  inhibition (ligand displacement, radioligand; 1 µM): 16%
CS(C)(=O)=Nc1ccc(-c2ccc(-c3nc4cc(O[C@@H]5CO[C@H]6[C@@H]5OC[C@H]6O)[nH]c4cc3F)cc2)cc1  inhibition (calcium signal, antagonist; 10 µM): 30%
CCN(CC)CCOc1ccc(-c2nnn(Cc3ccc(OC)cc3)c2N)cc1  inhibition (FLIPR calcium; HEK293; 10 µM): -3.49%
C/C(=N\OCCCN1CCCCC1)c1ccc(C(F)(F)F)cc1  activation (agonist, IP-One; 10 µM): 5.73%
Cc1cc(-c2ccc3ccccc3c2)nnc1NCCN1CCN(C)CC1  activity (antagonist; 10000 nM; relative to: control): 0%
CN[C@@H]1[C@H](O)[C@H](NC)[C@H]2O[C@]3(O)[C@H](O[C@@H]2[C@H]1O)O[C@H](C)C[C@H]3NC(=O)Cc1ccc(Cl)cn1  inhibition (ligand displacement, radioligand; 10 µM): -8%
Cc1cc(Nc2nc(C[C@@]3(C(=O)O)CCN(Cc4cccc(Cl)c4F)[C@H](C)C3)cc(C)c2F)[nH]n1  inhibition (inhibitor; 10 µM): -5.19%

For quick reference, copied from above:
Cc1cc(Nc2nc(C[C@@]3(C(=O)O)CCN(Cc4cccc(Cl)c4F)[C@H](C)C3)cc(C)c2F)[nH]n1  inhibition (inhibitor; 10 µM): -5.19%
